Experimental data from different studies.
Lines come from different studies, so protocols differ.
Cell line: HEK293

SMILES | observed | technique | concentration | time | viability
c1cc2nc(c1)-c1cccc(n1)CCCc1ccc(cc1)OCCCCCCOc1ccc(cc1)CCC2 | cell growth or viability | MTT | 25 µM | 24 h | 84.8%
Cc1ccc(-n2cc(CSc3nc4ccccc4n3Cc3cn(-c4ccc(C)cc4)nn3)nn2)cc1 | – | MTT | 31.3 ppm | – | 48.1%
CC[C@H](C)[C@@H](C(=O)N[C@@H](Cc1ccc(O)cc1)C(=O)N1CCC[C@H]1C(=O)N[C@@H](Cc1ccccc1)C(=O)O)n1cc(C(Cc2ccc(O)cc2)NC(=O)[C@@H](NC(=O)[C@H](CCCNC(=N)N)NC(=O)[C@@H](N)CC(=O)O)C(C)C)nn1 (some centres unmarked) | cell growth or viability | MTT | 12.5 µM | 24 h | 97.1%
N=C(N)NCCC[C@@H]1NC(=O)[C@H](CCCNC(=N)N)NC(=O)[C@@H](CCCNC(=N)N)NC(=O)[C@@H](CCCNC(=N)N)NC(=O)[C@@H](C(c2ccccc2)c2ccccc2)NC(=O)[C@H](Cc2c[nH]c3ccccc23)NC(=O)[C@@H](C(c2ccccc2)c2ccccc2)NC1=O | cell growth or viability | MTS | 200 µg/mL | 24 h | 72 to 77%
O=C(CN1C(=O)CSC1=O)Oc1ccc(/C=N/NC(=O)c2ccccn2)cc1Br | cell growth or viability | MTT | 40 µg/mL | 24 h | > 70%
N=C(N)NCCC[C@@H]1NC(=O)[C@H](CCCNC(=N)N)NC(=O)[C@@H](Cc2ccc3ccccc3c2)NC(=O)[C@H](Cc2c[nH]c3ccccc23)NC(=O)[C@@H](Cc2ccc3ccccc3c2)NC(=O)[C@@H](CCCNC(=N)N)NC(=O)[C@@H](CCCNC(=N)N)NC1=O | cell growth or viability | MTS | 200 µg/mL | 24 h | 67 to 72%
O=C(CN1C(=O)CSC1=O)Oc1ccc(/C=N/NC(=O)c2ccncc2)cc1Br | cell growth or viability | MTT | 50 µg/mL | 24 h | > 70%
CN1CCCNC(=O)c2cccc(c2)C(=O)NCCCN(C)CCCNc2cccc3c2C(=O)c2cccc(c2C3=O)NCCC1 | cell growth or viability | CCK-8 | 1 nM | 48 h | 101%
